Experimental data from different studies.
A part holds a random share of what one study measured. Positions count from the first letter of the parent shown.

Set 1 — technique: universal PBM; molecule type: double-stranded DNA, one strand shown; medium: in vitro; concentration: not given; direction: higher = stronger binding
Target: Sal-like protein 4, full length isoform B (SALL4, Homo sapiens, UniProt Q9UJQ4-2, residues 1-616)
Setting: 8-mer, flanks averaged, mean of replicates
Oligonucleotide	E-score
AAGGGTCT	-0.0251
ACTACTGG	-0.153
ACCCAAGA	-0.0507
AGTTTTTC	0.101
AGCGGCAA	-0.184
AGACCAGG	-0.213
GAAGAGTC	-0.0403
GCCGCCTA	-0.33
AAAGTAGG	0.153
GTGCAAAA	0.12
ATACGAAG	0.174
TCAAACAA	0.124
CCCGGTCC	-0.409
GGCTTACC	-0.291
ATTTTACG	0.284
GATTAAAA	0.32
CAAGATGG	-0.0658
CAGGCGAC	-0.309
GGCTCAAC	-0.226
CAACGAGG	-0.0238
TAAGGATA	0.125
AAGGCAGA	0.014
CGCCGAGC	-0.263
ACCATCGG	-0.223
CAGCGTCC	-0.244

Set 2 — target: CCND2, cyclin fold, Cln2 fusion (human); technique: yeast growth competition, sequencing; medium: yeast; setting: weak parent motif; reference: not given; direction: higher = stronger binding
Parent: CDC25A docking peptide (human); PPHRRRLLFACSP
Substitution	normalised enrichment score
H3Y	0.148
P1M	0.275
P2H	0.167
L8D	0.308
H3M	-0.429
F9K	0.0503
C11L	-0.118
P2G	0.25
F9Q	0.23
R5V	0.386
R6E	0.0205
C11N	-0.147
R6W	0.789
H3K	0.0585
L8V	0.237
H3G	0.131
R4S	-0.122
R4F	0.164
P13Y	0.384
R6L	0.268
R5P	-0.0262
R5A R6A L7A L8A	-0.0597
R4M	-0.132
C11P	0.375
P13N	0.207

Set 3 — technique: RNA Bind-n-Seq; molecule type: RNA; medium: in vitro; concentration: 365 nM; reference: no-protein control; direction: higher = stronger binding
Target: RNA binding protein fox-1 homolog 2, RRM domain, GST-SBP tag (RBFOX2, Homo sapiens, UniProt O43251-10, residues 100-194)
Setting: natural RNA segment, single round, ends assumed
Residues (chain): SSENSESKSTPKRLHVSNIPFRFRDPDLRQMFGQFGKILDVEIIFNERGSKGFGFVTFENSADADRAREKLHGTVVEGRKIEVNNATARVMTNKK
Oligonucleotide	RBNS enrichment (R)
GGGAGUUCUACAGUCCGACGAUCUCUAGAAUCAGAGGCUACCCCUGCCUGUGUGGGGAGGGCCUUUGCUGGCAAGAGAAGCUCAGGCUCAGAGAUGUCUGGACUUUCUCUCCCUCCCUCUCUCUCUCUCUCUCUGGAAUUCUCGGGUGCCAA	0.959
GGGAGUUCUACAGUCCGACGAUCAUUCCAGGAUUUAGGCCUUAUCAUCCCGGCCAGUCUCAGAUGACCUAGCUGGCCCCAGGCUGGGGUCCUAUGCAAAGCAGGAUCCCACUAAUGGGAUUCAGGCAGAAGUGUGGAAUUCUCGGGUGCCAA	0.194
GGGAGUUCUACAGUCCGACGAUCCCAUUACAGAUGGUUGUGAGCCGCCAUGUGGUUGCUGGGAGUAGAACUCAGGACCUCUGGGAAAGCAGUCAGUGCUCUUAACCACUGAGCCAUCUCUCCAGCCCCCUAGAUGGAAUUCUCGGGUGCCAA	0.284
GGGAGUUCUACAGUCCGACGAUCACACUUCUGGGUUUUAGUUGGGAUUUUACAUAGCUUGCAUUUUAGUUCUUUGGUUCUUUGCUGUUUCUAUUAACCCAUAGCAUUAUUUUAAUAAAUGUUAUAAUACCAACUGGAAUUCUCGGGUGCCAA	0.735
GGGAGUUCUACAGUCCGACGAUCAUACUUAAAAGUAUCUCCUCCUUACUUGAAAGAAUGAUGUUCUACAUGCUAAUAUUUGUGAGACAUGAAAACUAUUUCAAAGCCAACUUUGUUGUCUUGUUGUAUAAGAAUGGAAUUCUCGGGUGCCAA	0.373
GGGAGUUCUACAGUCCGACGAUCCCUGCUCCUCCACCCCCUCCCAUCACUAUCCAUAGAAUCAGUGGUGCAGGACCGAAAGCCAGACUCAGCCCCUUGUCUCCCUGCACCUGUCCCACUUGACAUUUUUUAACUGGAAUUCUCGGGUGCCAA	0.785
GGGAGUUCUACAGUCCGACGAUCAUUUGAUGAGGACGACUGGUCCGAUUAACUCUUUCUGCCUGCUGCCCACCUUCUUUUUCUUUCCUUCCUACCUGCCUUCUUUGAUGCCAACCCCAACAGACCCGUAGGGGUGGAAUUCUCGGGUGCCAA	2.15
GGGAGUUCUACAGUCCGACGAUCUCACUGCUUCAGUCAGCCUUCAUUAGCACCAAAGACUCCAUGAAGGUCGUCCCCCACACAAACAUACCCCUUGCGCACCUUCUGCCUACUUUGAGCCGGAUCUGGCCUGUUGGAAUUCUCGGGUGCCAA	0.389

Set 4 — technique: protein-binding microarray; molecule type: double-stranded DNA, one strand shown; medium: in vitro; concentration: 250 nM; setting: 60-bp whole probe; together with: salmon DNA 0.4 mg/ml; reference: random background probes; direction: higher = stronger binding; shared flanks, not repeated: GCCTAGCAC … GTCTTGATTCGCTTGACGCTGCTG
Target: Interferon regulatory factor 7, full length, phosphomimetic (IRF7, Homo sapiens, UniProt Q92985, residues 1-503, S101K/S471D/S472D/S475D/S476D/S477D/S483D/S484D/S487D)
Sequence of UniProt Q92985 (whole entry, unmodified, looked up): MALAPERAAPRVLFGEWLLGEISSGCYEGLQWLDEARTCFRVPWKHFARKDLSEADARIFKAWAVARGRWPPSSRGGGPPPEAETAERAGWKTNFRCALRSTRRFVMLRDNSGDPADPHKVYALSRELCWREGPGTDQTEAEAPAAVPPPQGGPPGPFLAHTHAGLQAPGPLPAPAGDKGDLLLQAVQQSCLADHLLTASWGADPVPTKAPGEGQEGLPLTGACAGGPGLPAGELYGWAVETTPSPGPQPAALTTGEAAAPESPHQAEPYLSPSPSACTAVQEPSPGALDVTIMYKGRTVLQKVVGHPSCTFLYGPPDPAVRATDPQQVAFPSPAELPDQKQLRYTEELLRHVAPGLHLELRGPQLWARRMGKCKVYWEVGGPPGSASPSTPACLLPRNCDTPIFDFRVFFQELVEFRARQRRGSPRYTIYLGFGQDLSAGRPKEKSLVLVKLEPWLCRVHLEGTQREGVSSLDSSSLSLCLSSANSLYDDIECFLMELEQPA
Oligonucleotide	log fluorescence [z-score]
GACGGTACCGGTTTCGGGACGTGCTAG	4.23
GACGATATCAGACTGGAGACGTGCTAG	-0.371
CTAGGTATCGACTATCGGTTAGTGCTA	0.609
GACGGTTTCTACACTGGGGACGTGCTA	1.08
GACGATATCAGGCTGGAGACGTGCTAG	-0.548
TTAGGTTTCGGGTATCGGTTCGTGCTA	8.26
TTACGTCTCCTACTGCTTTAGTGCTAG	0.256
GACGATTCCAGCTTCGAGACGTGCTAG	0.408
GACGACATCGGGTTTCGAGACGTGCTA	2.21
TTGGGTATCGGTCTCGGTTAGTGCTAG	1.95
GACGGTTTCGACACTGGGCACGTGCTA	3.68
GACGATTTTGGGTTTCGAGACGTGCTA	2.69
CACGATATCAGTCTCGAGACGTGCTAG	0.629
GACGGTCTCCTTTGCCTGACGTGCTAG	0.053
AACAATATATATATTATATAGTGCTAG	0.579
TTAGGTCTCGGGTTCGGTTAGTGCTAG	4.42
ATCTCACTCTAATCTCACTCTGTGCTA	0.319
TTAGGTATCGACCTTCGGTTAGTGCTA	0.185
GACGGTCTTCTTTTCCTGACGTGCTAG	0.734

A few entries again (set 1):
Oligonucleotide	E-score
ATTTTACG	0.284
GATTAAAA	0.32
CAAGATGG	-0.0658
CAGGCGAC	-0.309
GGCTCAAC	-0.226
CAACGAGG	-0.0238
TAAGGATA	0.125
